Results from different studies.
Parts stem from different laboratories: compare values within a part only. Positions count from the first letter of the parent shown.

Sample 1
Target: ABI1, truncated, D143A, DHFR fusion (Arabidopsis thaliana)
Technique: DHFR PCA, deep sequencing
Sample: yeast
Notes: methotrexate growth selection, single substitutions
With: (+)-ABA 1.4 µM
Relative to: wild-type fitted maximum
Direction: higher = stronger binding
Starting sequence: PYL1, truncated, DHFR fusion (Arabidopsis thaliana); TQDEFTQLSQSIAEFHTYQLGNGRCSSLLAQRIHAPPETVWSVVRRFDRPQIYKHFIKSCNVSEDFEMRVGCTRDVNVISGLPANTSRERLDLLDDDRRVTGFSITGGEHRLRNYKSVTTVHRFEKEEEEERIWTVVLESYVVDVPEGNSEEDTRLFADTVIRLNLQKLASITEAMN
| Variant | relative binding score |
| --- | --- |
| H55Y | 50.7% |
| R111W | 1.19% |
| L82E | -2.03% |
| V43I | 60.1% |
| K168S | 61.9% |
| P37G | -16.2% |
| P83A | 20.9% |
| I162D | -0.418% |
| M176E | 35.2% |
| R46F | -50.9% |
| R46W | 4.72% |
| V78Q | -9.83% |
| N177A | 64.9% |
| K168H | 60.2% |
| T106R | 7.93% |
| Q167H | 34.8% |
| V121H | -8.66% |
| F56S | -6.17% |
| G108Q | -4.5% |
| V121I | 32.5% |
| T160L | 37.7% |
| R123I | 3.27% |
| R32T | 65.9% |
| Q31C | 0.976% |

Sample 2
Target: Interferon regulatory factor 7, full length, phosphomimetic (IRF7, Homo sapiens, UniProt Q92985, residues 1-503, S471D/S472D/S475D/S476D/S477D/S483D/S484D/S487D)
Technique: protein-binding microarray
Form: double-stranded DNA, one strand shown
Sample: in vitro
Tested at: 2200 nM top
Notes: 60-bp whole probe
With: salmon DNA 0.4 mg/ml
Relative to: random background probes
Direction: higher = stronger binding
Shared flanks, not repeated: GCCTAGCAC … GTCTTGATTCGCTTGACGCTGCTG
Residues (chain): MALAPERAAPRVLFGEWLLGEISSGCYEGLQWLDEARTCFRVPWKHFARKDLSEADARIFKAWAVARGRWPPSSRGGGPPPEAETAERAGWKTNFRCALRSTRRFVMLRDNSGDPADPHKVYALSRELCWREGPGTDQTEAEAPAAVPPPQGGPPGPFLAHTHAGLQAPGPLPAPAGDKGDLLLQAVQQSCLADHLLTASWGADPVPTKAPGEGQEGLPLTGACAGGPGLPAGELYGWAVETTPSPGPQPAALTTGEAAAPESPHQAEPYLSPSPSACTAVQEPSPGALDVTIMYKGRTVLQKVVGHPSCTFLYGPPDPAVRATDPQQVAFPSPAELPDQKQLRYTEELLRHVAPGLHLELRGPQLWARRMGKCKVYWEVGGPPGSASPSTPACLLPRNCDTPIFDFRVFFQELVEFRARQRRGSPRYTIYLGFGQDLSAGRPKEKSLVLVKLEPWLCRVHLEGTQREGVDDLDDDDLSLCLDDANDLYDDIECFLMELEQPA
| Strand | fitted relative affinity |
| --- | --- |
| GACGAGCTCAGTATCGAGACGTGCTAG | -0.299 z-score |
| GACGATATCGGGTATCGAGAGGTGCTA | -0.149 z-score |
| GACGGACTGAGTATCGAGACGTGCTAG | -0.438 z-score |
| GACGATTTCGGGACTGGCGACGTGCTA | 1.19 z-score |
| GACGGACTGGGACTGGGGAAGTGCTAG | -0.978 z-score |
| GACGGTCTCCTTATCCTGGCGTGCTAG | 0.898 z-score |
| TTAGGTTTCGGTCTCCGTTAGTGCTAG | 7.64 z-score |
| TTAGGACTGGGGTATCTGTTAGTGCTA | -0.447 z-score |
| TTAGGTTTCCTTCTACTTTAGTGCTAG | 2.01 z-score |
| TCGTAAGCAAAAATGATTGGGTGCTAG | -0.292 z-score |
| GACGGTTTGCTTTCCCTGACGTGCTAG | 2.31 z-score |
| TCATGTATGGATGTGTCACTGTGCTAG | 0.882 z-score |
| TTAGATATCAGACAGGATTAGTGCTAG | -0.495 z-score |
| TCAGCTTTCTTTACCACACTGTGCTAG | 1.61 z-score |
| TCAGCATTCGAATTCAGACTGTGCTAG | 1.18 z-score |
| GGCGATCTCAGACTGGAGACGTGCTAG | -0.67 z-score |
| GACGAACTGAGATTCGAGACGTGCTAG | -0.092 z-score |
| GACGGTCTCCTACTGCTAACGTGCTAG | 0.668 z-score |
| TATTATATATTTATGTATACGTGCTAG | 0.88 z-score |

Sample 3
Target: Sal-like protein 4, full length isoform A (SALL4, Homo sapiens, UniProt Q9UJQ4, residues 1-1053)
Sequence of UniProt Q9UJQ4 (whole entry, looked up): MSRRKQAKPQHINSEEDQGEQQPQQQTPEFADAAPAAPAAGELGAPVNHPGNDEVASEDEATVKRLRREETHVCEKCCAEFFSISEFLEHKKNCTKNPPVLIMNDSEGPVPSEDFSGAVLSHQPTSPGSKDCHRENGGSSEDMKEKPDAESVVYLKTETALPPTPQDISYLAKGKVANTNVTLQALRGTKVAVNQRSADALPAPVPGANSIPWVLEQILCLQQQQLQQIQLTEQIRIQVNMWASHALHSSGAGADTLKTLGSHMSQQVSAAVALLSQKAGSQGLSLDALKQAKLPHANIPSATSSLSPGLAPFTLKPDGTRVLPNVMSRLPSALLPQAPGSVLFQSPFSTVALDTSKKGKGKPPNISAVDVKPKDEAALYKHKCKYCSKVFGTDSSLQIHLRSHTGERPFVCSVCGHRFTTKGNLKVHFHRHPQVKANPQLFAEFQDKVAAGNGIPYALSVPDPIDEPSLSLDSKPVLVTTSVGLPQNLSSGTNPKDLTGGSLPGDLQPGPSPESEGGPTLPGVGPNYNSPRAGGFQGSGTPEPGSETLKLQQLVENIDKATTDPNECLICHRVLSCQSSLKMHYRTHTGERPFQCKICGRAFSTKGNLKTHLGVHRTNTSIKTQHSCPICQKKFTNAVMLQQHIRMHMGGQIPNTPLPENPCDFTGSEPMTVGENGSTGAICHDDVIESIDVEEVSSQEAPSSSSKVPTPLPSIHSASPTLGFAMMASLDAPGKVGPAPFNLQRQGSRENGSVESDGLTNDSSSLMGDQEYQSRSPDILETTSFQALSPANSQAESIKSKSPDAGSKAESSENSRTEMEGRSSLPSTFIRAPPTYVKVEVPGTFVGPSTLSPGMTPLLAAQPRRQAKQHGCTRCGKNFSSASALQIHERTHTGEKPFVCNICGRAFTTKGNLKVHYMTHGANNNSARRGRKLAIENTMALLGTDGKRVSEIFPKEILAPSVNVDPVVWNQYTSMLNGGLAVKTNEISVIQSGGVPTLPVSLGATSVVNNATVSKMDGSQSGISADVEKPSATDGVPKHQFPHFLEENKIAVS
Technique: universal PBM
Form: double-stranded DNA, one strand shown
Sample: in vitro
Tested at: 600 nM
Notes: 8-mer, flanks averaged, mean of replicates
Direction: higher = stronger binding
| Strand | E-score |
| --- | --- |
| CGGTGGCC | -0.37 |
| GCGCGTCC | -0.349 |
| ACCATCTG | -0.252 |
| CTTAAAAC | 0.157 |
| AAACCGAT | 0.0255 |
| TAAAATCA | 0.249 |
| GGGCGACA | -0.294 |
| CGAGGGAG | -0.162 |
| ACAAGAGA | 0.00451 |
| CGCGGTCC | -0.399 |
| ACTGTGCG | -0.153 |
| CTGCAGCA | -0.0639 |
| TCTCCGCA | -0.208 |
| ACAGCTCG | -0.168 |
| ATTGTAGC | 0.068 |
| AACCCTAG | -0.0312 |
| GAATCACC | -0.0253 |
| GTCTGCAC | -0.122 |

Sample 4
Target: RNA binding protein fox-1 homolog 2, RRM domain, GST-SBP tag (RBFOX2, Homo sapiens, UniProt O43251-10, residues 100-194)
Technique: RNA Bind-n-Seq
Form: RNA
Sample: in vitro
Tested at: 365 nM
Notes: natural RNA segment, single round, ends assumed
Relative to: no-protein control
Direction: higher = stronger binding
Shared flanks, not repeated: GGGAGUUCUACAGUCCGACGAUC … UGGAAUUCUCGGGUGCCAA
Residues (chain): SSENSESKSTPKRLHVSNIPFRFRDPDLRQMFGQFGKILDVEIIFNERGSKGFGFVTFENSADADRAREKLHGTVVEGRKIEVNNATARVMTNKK
| Strand | RBNS enrichment (R) |
| --- | --- |
| UGGGAACACCCACACUCAGUGCACCCUGUGGGUGACCCUCCCUACACAGUGCAGAGCAGAGCCCAGGAGGGGCCACAGGCAUCAGUGAACUCUCCUUGCCUAGGAUGGCA | 0.309 |
| CCACAGACAUUGGUCUUGAGAGAGCCUUGGCUGUGUAUCAAUUACAAAGCCCUGCCAGCAAGGGGAUGGCACCACUGGAGCUCUUGCCAAAUCACUCUCAGCCCUGUAUU | 0.446 |
| UCUCCUUUUUAACACACUUUCUUAGGUCUAUGGAAACUACAGGGUUGCCACUGAAAUGUUUUUUUACUUGUUGAUAGUGUCAGGGCCCCCCUUCCAUCCCCAUGGGCUUG | 0.416 |
| CAAAAACAACAACAAAAUGAAACGCAACCACCACCAACCACUGCGACCACAAGAAGGAUGAUUCAACAGGUUUUCCUGAAGAAUUGAAAAACCAUUUUGCUGUCCCUUUU | 0.509 |
| CUCCUAGCAGAGCUGUCUGUGCAGACUGUUUCUUAGGAGGCACAGCAAGCUCCAGGGAACCCUCUGUGCUUAUGAAGCUCGUCUGGUGGGCAACCCCAGCCCACUGGACA | 0.239 |
| CAACUGUAUCACUGAGGUAACUCCUCAGUGUUGGGUCCAUUACAGCCUUGGAGCAAAGUUGACCACCACCUUGUGUGGAUCAAGAAGAGAAGAAACUACUUUGGAGUUUU | 0.263 |
| GCUCCACUCUUGCCGCCUUCCAGCUCUGAGUCUUGGGAAUGUUGUUACCCUUGGAAGAUAAAGCUGGGUCUUCAGGAACUCAGUGUCUGGGAGGAAAGCAUGGCCCAGCA | 5.55 |
| CCCAGCUGCCUUUAGGGCCCCCAUUGUUCAUAACAGCAUAUGCAUUUCCCCACCGCGUUGUGUCUGCAGCUUCUUUGCCAAUAUAGUAAUGCUUUUAGUAGAGUACUAGA | 4.49 |

Excerpt of the above (sample 4):
| Strand | RBNS enrichment (R) |
| --- | --- |
| UGGGAACACCCACACUCAGUGCACCCUGUGGGUGACCCUCCCUACACAGUGCAGAGCAGAGCCCAGGAGGGGCCACAGGCAUCAGUGAACUCUCCUUGCCUAGGAUGGCA | 0.309 |
| CCACAGACAUUGGUCUUGAGAGAGCCUUGGCUGUGUAUCAAUUACAAAGCCCUGCCAGCAAGGGGAUGGCACCACUGGAGCUCUUGCCAAAUCACUCUCAGCCCUGUAUU | 0.446 |
| UCUCCUUUUUAACACACUUUCUUAGGUCUAUGGAAACUACAGGGUUGCCACUGAAAUGUUUUUUUACUUGUUGAUAGUGUCAGGGCCCCCCUUCCAUCCCCAUGGGCUUG | 0.416 |
| CAAAAACAACAACAAAAUGAAACGCAACCACCACCAACCACUGCGACCACAAGAAGGAUGAUUCAACAGGUUUUCCUGAAGAAUUGAAAAACCAUUUUGCUGUCCCUUUU | 0.509 |
| CUCCUAGCAGAGCUGUCUGUGCAGACUGUUUCUUAGGAGGCACAGCAAGCUCCAGGGAACCCUCUGUGCUUAUGAAGCUCGUCUGGUGGGCAACCCCAGCCCACUGGACA | 0.239 |
| CAACUGUAUCACUGAGGUAACUCCUCAGUGUUGGGUCCAUUACAGCCUUGGAGCAAAGUUGACCACCACCUUGUGUGGAUCAAGAAGAGAAGAAACUACUUUGGAGUUUU | 0.263 |
| GCUCCACUCUUGCCGCCUUCCAGCUCUGAGUCUUGGGAAUGUUGUUACCCUUGGAAGAUAAAGCUGGGUCUUCAGGAACUCAGUGUCUGGGAGGAAAGCAUGGCCCAGCA | 5.55 |
| CCCAGCUGCCUUUAGGGCCCCCAUUGUUCAUAACAGCAUAUGCAUUUCCCCACCGCGUUGUGUCUGCAGCUUCUUUGCCAAUAUAGUAAUGCUUUUAGUAGAGUACUAGA | 4.49 |
